Published values from different studies.
Protocols differ between the studies behind these lines. ± marks the error that the study gave. Non-standard residues stand in square brackets, D forms with d. Square brackets hold non-standard residues; d marks the D form. Bridges are numbered along the chain shown (N, C = ends). Primed or numbered codes have the meaning given here. Where no end group is shown, it is not given here. Ends that are not written are not given here. No end group written: not given here. [ ]: non-standard residue; d: D form. * marks the point of attachment.
Rbpj: Rbpj 53-474 (Mus musculus, UniProt P31266)
UniProt P31266, sequence (whole entry, looked up): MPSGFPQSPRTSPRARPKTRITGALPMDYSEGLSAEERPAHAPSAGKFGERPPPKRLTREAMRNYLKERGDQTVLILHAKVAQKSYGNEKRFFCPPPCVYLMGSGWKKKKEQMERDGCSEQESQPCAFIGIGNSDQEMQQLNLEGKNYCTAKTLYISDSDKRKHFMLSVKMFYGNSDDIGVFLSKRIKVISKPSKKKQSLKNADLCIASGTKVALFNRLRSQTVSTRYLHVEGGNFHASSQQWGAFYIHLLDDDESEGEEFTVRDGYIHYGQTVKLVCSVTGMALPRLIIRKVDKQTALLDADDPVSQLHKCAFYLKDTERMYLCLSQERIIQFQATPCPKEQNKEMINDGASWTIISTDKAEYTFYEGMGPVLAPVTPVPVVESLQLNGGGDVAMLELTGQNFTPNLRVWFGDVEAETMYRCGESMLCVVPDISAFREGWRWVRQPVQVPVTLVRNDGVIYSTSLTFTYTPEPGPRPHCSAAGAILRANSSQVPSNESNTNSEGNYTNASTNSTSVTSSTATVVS
CIB1: CIB1 (Homo sapiens, UniProt Q99828)
UniProt Q99828, sequence (whole entry, looked up): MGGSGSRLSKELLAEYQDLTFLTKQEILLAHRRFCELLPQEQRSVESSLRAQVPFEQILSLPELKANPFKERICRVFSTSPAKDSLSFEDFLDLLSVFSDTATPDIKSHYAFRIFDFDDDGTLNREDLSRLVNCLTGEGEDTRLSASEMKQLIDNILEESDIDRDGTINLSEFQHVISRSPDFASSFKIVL
PCNA: PCNA (Homo sapiens, UniProt P12004)
UniProt O15392, sequence (whole entry, looked up): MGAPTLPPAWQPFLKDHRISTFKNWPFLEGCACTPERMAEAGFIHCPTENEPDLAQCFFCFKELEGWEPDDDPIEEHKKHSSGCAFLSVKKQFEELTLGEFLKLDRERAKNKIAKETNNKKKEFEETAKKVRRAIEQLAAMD
UniProt P12004, sequence (whole entry, looked up): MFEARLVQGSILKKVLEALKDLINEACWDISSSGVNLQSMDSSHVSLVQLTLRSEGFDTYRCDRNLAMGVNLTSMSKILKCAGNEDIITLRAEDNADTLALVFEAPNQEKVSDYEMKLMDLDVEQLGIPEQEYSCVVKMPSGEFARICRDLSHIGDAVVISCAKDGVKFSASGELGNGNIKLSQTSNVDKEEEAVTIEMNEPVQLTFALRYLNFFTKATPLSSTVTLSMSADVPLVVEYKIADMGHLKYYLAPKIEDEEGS
UniProt Q9HD67, sequence (whole entry, unmodified, looked up): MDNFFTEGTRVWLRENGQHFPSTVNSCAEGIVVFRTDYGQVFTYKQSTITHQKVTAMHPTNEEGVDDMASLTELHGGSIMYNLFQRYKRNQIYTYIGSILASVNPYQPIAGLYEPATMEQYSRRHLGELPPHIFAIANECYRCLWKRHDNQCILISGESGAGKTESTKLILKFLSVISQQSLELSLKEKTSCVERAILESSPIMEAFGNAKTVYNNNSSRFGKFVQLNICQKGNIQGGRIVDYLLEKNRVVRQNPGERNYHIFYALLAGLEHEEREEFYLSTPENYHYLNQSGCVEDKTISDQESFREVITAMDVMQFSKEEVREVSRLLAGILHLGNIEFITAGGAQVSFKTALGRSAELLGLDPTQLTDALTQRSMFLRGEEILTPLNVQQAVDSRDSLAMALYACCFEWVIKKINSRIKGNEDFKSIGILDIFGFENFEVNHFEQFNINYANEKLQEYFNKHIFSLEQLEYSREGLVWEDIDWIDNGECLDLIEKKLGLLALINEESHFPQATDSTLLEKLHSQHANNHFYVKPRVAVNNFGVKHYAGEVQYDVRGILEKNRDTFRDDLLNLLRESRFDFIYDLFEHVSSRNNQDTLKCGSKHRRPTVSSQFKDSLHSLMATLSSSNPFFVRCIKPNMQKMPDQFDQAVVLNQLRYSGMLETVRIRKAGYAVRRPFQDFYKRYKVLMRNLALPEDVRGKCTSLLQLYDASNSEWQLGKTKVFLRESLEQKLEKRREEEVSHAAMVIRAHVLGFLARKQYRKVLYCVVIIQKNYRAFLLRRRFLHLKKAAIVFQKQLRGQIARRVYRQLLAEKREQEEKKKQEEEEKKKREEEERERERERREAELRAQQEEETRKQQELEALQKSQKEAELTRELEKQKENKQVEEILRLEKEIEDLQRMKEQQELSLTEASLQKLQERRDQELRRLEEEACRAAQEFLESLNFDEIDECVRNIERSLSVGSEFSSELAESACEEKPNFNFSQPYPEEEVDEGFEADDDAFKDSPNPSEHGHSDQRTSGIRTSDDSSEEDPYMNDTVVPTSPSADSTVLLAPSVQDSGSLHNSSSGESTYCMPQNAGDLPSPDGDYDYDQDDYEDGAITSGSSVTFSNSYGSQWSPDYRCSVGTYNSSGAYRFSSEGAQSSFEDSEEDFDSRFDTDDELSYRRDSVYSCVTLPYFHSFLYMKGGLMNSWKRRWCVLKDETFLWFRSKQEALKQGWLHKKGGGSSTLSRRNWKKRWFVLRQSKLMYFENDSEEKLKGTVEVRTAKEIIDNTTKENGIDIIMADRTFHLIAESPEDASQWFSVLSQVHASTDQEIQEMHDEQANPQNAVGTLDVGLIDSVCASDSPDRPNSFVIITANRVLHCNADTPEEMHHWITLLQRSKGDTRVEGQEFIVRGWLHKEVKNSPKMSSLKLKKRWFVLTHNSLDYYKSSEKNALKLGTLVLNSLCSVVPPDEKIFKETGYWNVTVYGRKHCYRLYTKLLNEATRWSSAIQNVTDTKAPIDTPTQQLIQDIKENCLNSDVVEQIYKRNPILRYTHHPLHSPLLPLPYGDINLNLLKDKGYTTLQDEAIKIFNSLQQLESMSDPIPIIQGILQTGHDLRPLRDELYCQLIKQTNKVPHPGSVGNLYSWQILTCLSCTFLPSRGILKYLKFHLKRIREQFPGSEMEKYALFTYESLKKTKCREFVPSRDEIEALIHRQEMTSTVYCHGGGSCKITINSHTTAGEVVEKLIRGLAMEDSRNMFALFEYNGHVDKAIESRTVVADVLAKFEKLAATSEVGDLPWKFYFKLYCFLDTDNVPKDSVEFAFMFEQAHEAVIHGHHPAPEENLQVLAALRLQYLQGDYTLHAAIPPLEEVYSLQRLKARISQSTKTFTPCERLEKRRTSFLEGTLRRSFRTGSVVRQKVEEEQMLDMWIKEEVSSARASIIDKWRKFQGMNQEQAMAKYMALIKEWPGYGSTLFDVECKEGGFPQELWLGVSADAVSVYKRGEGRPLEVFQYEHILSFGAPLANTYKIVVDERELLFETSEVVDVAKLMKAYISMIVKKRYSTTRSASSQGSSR
UniProt Q13009, sequence (whole entry, looked up): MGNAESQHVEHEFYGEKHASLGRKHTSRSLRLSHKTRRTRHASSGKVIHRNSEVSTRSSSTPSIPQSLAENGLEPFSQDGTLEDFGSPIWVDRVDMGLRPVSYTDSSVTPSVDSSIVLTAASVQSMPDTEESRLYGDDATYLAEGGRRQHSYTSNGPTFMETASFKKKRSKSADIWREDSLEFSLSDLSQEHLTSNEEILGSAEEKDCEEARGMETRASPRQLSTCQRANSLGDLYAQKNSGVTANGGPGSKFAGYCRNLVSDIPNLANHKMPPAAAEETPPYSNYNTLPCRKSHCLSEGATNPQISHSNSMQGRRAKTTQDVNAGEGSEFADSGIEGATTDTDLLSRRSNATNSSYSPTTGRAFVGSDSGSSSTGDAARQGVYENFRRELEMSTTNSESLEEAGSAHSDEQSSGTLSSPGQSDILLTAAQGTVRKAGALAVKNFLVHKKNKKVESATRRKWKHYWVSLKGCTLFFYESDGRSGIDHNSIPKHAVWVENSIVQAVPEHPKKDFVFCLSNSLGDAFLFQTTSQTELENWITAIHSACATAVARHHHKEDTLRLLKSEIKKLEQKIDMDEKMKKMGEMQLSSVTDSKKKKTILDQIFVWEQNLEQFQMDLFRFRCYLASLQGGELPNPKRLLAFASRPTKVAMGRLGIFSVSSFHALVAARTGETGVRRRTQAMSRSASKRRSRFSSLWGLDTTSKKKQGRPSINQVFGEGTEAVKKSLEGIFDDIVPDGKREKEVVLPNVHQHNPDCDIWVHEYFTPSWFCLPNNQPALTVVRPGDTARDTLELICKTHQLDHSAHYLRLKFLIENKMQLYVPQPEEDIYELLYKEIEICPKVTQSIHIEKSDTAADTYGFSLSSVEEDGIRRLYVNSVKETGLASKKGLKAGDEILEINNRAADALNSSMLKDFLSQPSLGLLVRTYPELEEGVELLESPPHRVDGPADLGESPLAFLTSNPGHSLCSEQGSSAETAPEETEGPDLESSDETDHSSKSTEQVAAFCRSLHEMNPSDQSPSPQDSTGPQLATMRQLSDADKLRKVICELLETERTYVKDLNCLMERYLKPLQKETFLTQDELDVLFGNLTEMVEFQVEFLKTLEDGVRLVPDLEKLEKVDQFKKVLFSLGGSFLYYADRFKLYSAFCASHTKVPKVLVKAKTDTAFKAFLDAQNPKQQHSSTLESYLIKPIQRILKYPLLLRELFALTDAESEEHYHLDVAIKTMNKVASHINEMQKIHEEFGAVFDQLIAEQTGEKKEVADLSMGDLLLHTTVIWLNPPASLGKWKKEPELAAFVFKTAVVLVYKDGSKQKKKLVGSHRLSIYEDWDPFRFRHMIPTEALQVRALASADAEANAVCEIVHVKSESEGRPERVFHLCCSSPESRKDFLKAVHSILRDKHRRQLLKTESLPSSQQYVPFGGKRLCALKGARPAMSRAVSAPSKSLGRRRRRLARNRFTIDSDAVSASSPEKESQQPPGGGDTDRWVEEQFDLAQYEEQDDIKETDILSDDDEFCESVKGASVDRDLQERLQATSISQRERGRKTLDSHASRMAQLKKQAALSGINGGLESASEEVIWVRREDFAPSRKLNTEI
UniProt P10415, sequence (whole entry, looked up): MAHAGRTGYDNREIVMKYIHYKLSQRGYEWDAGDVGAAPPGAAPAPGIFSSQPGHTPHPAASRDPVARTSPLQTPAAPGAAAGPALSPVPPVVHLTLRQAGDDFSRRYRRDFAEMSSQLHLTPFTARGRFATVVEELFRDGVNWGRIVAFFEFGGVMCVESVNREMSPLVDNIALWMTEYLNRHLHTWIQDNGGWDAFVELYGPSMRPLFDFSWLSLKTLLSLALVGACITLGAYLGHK

GVARKTRHVNILLFMGYST (BRAF 503-521 L505A)
Kd (BRAF kinase domain with dimer interface; fluorescence titration; peptide): 3890 ± 530 nM

MPIFLDHILNKFLILHYA (SPAM peptide parental)
Kd (CD274 extracellular domain (Homo sapiens); SPR; peptide): 36 ± 29 nM

Ac-SAAASSSWH[S5]LFT[S5]EEGQLYG-NH2 (AR 426-446 T435X/A439X (Homo sapiens); staple 10-14; stapled i,i+4; N-acetyl; C-amide; S5 = C=CCCC[C@](C)(N)C(=O)O)
Kd (GTF2F1 450-517 (Homo sapiens, UniProt P35269); NMR titration; peptide; pH 7.4, 298 K): 125000 ± 3000 nM

MENVKKATATTTWMVPTAQ (L3MBTL3 52-70 (Homo sapiens, UniProt Q96JM7-2); sequence looked up)
Kd (Rbpj; ITC; peptide; pH 6.5, 25 °C, NaCl 150 mM, one site model): 920 nM

EDGGSFAYGAMKALYG (designed peptide W2A)
Kd (CIB1; ITC; peptide; 25 °C, together with: CaCl2 0.1 mM): 3910 nM

MENVKKATATTTWAVPTAQ (L3MBTL3 52-70 M65A (Homo sapiens, UniProt Q96JM7-2); sequence looked up)
Kd (Rbpj; ITC; peptide; pH 6.5, 25 °C, NaCl 150 mM, one site model): 1000 nM

KRRDSKITDHFHSKR-NH2 (CDKN1A/PARG (Homo sapiens); C-terminal amide)
Kd (PCNA; SPR; peptide): 90 nM

AR[pT]K(Ac)QTARKSTG (histone H3 2-13 (UniProt P68431); pT3, acetyl K4; pT = C[C@@H](OP(=O)(O)O)[C@H](N)C(=O)O; sequence looked up)
Kd (BIRC5 1-142 (Homo sapiens, UniProt O15392); ITC; peptide; pH 7.2): 15400 ± 800 nM

LVQKYCELHPLKPGCG (designed peptide; N-terminal bipyridyl thioether macrocycle, C-terminal amide)
Kd (BRD4 fragment (Homo sapiens); SPR; peptide): 5.1 nM

YAG[pS][pT]DEN[pT]D[pS]E (XRCC1 residues 515-526 (Homo sapiens); pS518/pT519/pT523/pS525; pS = N[C@@H](COP(=O)(O)O)C(=O)O; pT = C[C@@H](OP(=O)(O)O)[C@H](N)C(=O)O)
Kd (PNKP (Homo sapiens, UniProt Q96T60); ITC; peptide): 100 nM

NSRQTDR
inhibition (peptide, human polyclonal IgM RF ABR; concentration not given, 5 µg/mL mAb II-481 coated, together with: RF at 50% max binding concentration): 0%

KRRQTSMTDFFHSKR-NH2 (CDKN1A 141-155 Y151F (Homo sapiens, UniProt P38936); C-terminal amide)
Kd (PCNA; SPR; peptide): 10.6 nM

AR[pT][Lys(Me)]QTARKSTG (histone H3 2-13 (UniProt P68431); pT3, K4me1; pT = C[C@@H](OP(=O)(O)O)[C@H](N)C(=O)O; Lys(Me) = CNCCCC[C@H](N)C(=O)O; sequence looked up)
Kd (BIRC5 1-142 (Homo sapiens, UniProt O15392); ITC; peptide; pH 7.2): 3100 ± 140 nM

EDGGSFWYGGMKALYG (designed peptide A5G)
Kd (CIB1; ITC; peptide; 25 °C, together with: CaCl2 0.1 mM): 1990 nM

{FITC′}-KETKPLVHPNKNRTRGPRRKLPTRV (BSP1 552-576 (Saccharomyces cerevisiae); N-terminal FITC; FITC′ = fluorescein isothiocyanate)
Kd (CAP1/CAP2 (Saccharomyces cerevisiae); fluorescence polarisation; peptide): 34 nM

MoaA peptide (Staphylococcus aureus)
restored activity (moaA D198A/G340A (Staphylococcus aureus, UniProt P69848); MoaA/MoaC coupled assay; 200 µM; relative to: wt-MoaA, higher = more activity): 2.6%

FSRSLHSLL (NR4A1 489-497 (UniProt P22736); D-Arg octamer fusion; sequence looked up)
Kd (BCL2 (Homo sapiens, UniProt P10415); circular dichroism; peptide; pH 7.6): 2100 ± 200 nM

MENAKKATATTTWMVPTAQ (L3MBTL3 52-70 V55A (Homo sapiens, UniProt Q96JM7-2); sequence looked up)
Kd (Rbpj; ITC; peptide; pH 6.5, 25 °C, NaCl 150 mM, one site model): 870 nM

CNSRQTDREDELI
inhibition (peptide, human polyclonal IgM RF ABR; concentration not given, 5 µg/mL mAb II-481 coated, together with: RF at 50% max binding concentration): 0%

RmS-3, glycosylated (Rhipicephalus microplus)
protease inhibition (trypsin (Bos taurus); chromogenic substrate hydrolysis, inhibitor; 1 µM): < 20%

MWSRSDHNLNKFWILHYSANPS (peptide)
Kd (CD274 extracellular domain (Homo sapiens); BLI; peptide): 0.303 nM

MAAGLRYGKRAFVYGEPPFGYQDILNKLEDEGFPK (REV3 510-544 (Saccharomyces cerevisiae, UniProt P14284))
Kd (REV7 1-245 (Saccharomyces cerevisiae, UniProt P38927); ITC; peptide; pH 8.4, 25 °C, NaCl 100 mM): 3000 ± 1800 nM

SLEEPHSPETGEKVVAGEVN (AMER1 20-residue peptide; pS286)
Kd (KEAP1 321-609 (Homo sapiens, UniProt Q14145); ITC; peptide; pH 7, 25 °C, NaCl 100 mM): 1500 nM

Dansyl-TKQEEF[pY]A (SDC1 peptide residues 303-310 (Homo sapiens); pY309/N-terminal dansyl; Dansyl = CN(C)c1cccc2c(S(=O)(=O)*)cccc12; pY = N[C@@H](Cc1ccc(OP(=O)(O)O)cc1)C(=O)O)
Kd (TIAM1 841-930 (Homo sapiens, UniProt Q13009); fluorescence anisotropy; peptide; 25 °C): 19300 ± 1500 nM

TATCAACACTCTTTTCTTTTATGATATTTAATAGTTATTGCAAATTCATTGCTAACTTTCTTAACACGTTTTATAATAAACGGAGAGTTATCCGTTTGTCAATTTTAGAGAATTTTAAGTAGGTGTAATCATGCGAAAAGATGCAAAAGA (dsDNA)
Kd (gbaA 1-185 C104S (Staphylococcus aureus COL, UniProt Q5HCX3); EMSA; double-stranded DNA, one strand shown): 15.8 nM

KRRMKSIDTFFHSKR-NH2 (CDKN1A/RNASEH2B (Homo sapiens); C-terminal amide)
Kd (PCNA; SPR; peptide): 640 nM

MENVKKATATTTWMVPTAA (L3MBTL3 52-70 Q70A (Homo sapiens, UniProt Q96JM7-2); sequence looked up)
Kd (Rbpj; ITC; peptide; pH 6.5, 25 °C, NaCl 150 mM, one site model): 940 nM

RRRRRRRRKKPGLRRRQT (CDKN1B 189-198 (Homo sapiens))
Kd (PIM1 (Homo sapiens, UniProt P11309); SPR; peptide): 323 nM

MEAVKKATATTTWMVPTAQ (L3MBTL3 52-70 N54A (Homo sapiens, UniProt Q96JM7-2); sequence looked up)
Kd (Rbpj; ITC; peptide; pH 6.5, 25 °C, NaCl 150 mM, one site model): 470 nM

KRRKHTLDIFFHSKR-NH2 (CDKN1A/POLK p21 peptide with POLK PIP-box (Homo sapiens); C-terminal amide)
Kd (PCNA; SPR; peptide): 3300 nM

PAKKSEELVAEAHNLSTLLENAIQDTVREQDQSFTALDWSWLQTE (IKBKB 701-745 C716S (Homo sapiens, UniProt O14920); sequence looked up)
Kd (IKBKG 2-419 C11A/C76A/C95A/C131A/C167A (Homo sapiens, UniProt Q9Y6K9); competition with labelled peptide, fluorescence polarisation; pH 7.4): 32 nM

MENVKKRTATTTWMVPTAQ (L3MBTL3 52-70 A58R (Homo sapiens, UniProt Q96JM7-2); sequence looked up)
Kd (Rbpj; ITC; peptide; pH 6.5, 25 °C, NaCl 150 mM, one site model): 540 nM

melittin
partitioning enthalpy (isothermal titration calorimetry; POPC/POPG LUVs 90:10%; 100 µM, pH 7.0, 50 °C): -10 kcal/mol

MENVKKATATTTWMVPAAQ (L3MBTL3 52-70 T68A (Homo sapiens, UniProt Q96JM7-2); sequence looked up)
Kd (Rbpj; ITC; peptide; pH 6.5, 25 °C, NaCl 150 mM, one site model): 1200 nM

ARSPLLPVSVPTAPEVSEESHKPTEDSANVYEQDDLSEQMASLEGLMKQLNAITGSAF (DCC 1390-1447 (Homo sapiens, UniProt P43146); sequence looked up)
Kd (MYO10 MyTH4-FERM 1486-2058 del1872-1891 (Homo sapiens, UniProt Q9HD67); ITC; peptide): 530 ± 60 nM

MWPHRVTAAK (peptide; cyclic DSG, fluorescein)
Kd (MAP1LC3B (Homo sapiens, UniProt Q9GZQ8); fluorescence polarisation; peptide): 194 ± 52 nM

PATPTASSSSSTTPT (TP53BP1 1636-1650 (Homo sapiens, UniProt Q12888); sequence looked up)
Kd (SPOP 28-164 S119D (Homo sapiens, UniProt O43791); ITC; peptide; 10 °C, NaCl 100 mM, one-site model): 42500 ± 4400 nM

AR[pT]KQTARKSTGGKA (histone H3 2-16 (UniProt P68431); pT3; pT = C[C@@H](OP(=O)(O)O)[C@H](N)C(=O)O; sequence looked up)
Kd (BIRC5 (Homo sapiens, UniProt O15392); ITC; peptide; pH 7.5, 25 °C, NaCl 100 mM): 4800 ± 1130 nM

RmS-17, glycosylated (Rhipicephalus microplus)
protease inhibition (chymotrypsin (Bos taurus); chromogenic substrate hydrolysis, inhibitor; 1 µM): 89.8%

AR[pT]KQTARKSTG (H3C1 1-12; pT3; pT = C[C@@H](OP(=O)(O)O)[C@H](N)C(=O)O)
Kd (birc5.1 R89H (Xenopus laevis, UniProt Q8JGN5); ITC; peptide; pH 7.8, 25 °C, NaCl 50 mM): 4800 ± 500 nM

KRRQTSMDDFYHSKR-NH2 (CDKN1A 141-155 T148D (Homo sapiens, UniProt P38936); C-terminal amide)
Kd (PCNA; SPR; peptide): 96.5 nM
